# Results of several laboratories.
# Parts stem from different laboratories: compare values within a part only.

# Series 1
# Target: Sal-like protein 4, full length isoform B (SALL4, Homo sapiens, UniProt Q9UJQ4-2, residues 1-616)
# Method: universal PBM
# Form: double-stranded DNA, one strand shown
# Matrix: in vitro
# Tested at: not given
# Notes: 8-mer, flanks averaged, mean of replicates
# Direction: higher = stronger binding
# Target sequence (chain): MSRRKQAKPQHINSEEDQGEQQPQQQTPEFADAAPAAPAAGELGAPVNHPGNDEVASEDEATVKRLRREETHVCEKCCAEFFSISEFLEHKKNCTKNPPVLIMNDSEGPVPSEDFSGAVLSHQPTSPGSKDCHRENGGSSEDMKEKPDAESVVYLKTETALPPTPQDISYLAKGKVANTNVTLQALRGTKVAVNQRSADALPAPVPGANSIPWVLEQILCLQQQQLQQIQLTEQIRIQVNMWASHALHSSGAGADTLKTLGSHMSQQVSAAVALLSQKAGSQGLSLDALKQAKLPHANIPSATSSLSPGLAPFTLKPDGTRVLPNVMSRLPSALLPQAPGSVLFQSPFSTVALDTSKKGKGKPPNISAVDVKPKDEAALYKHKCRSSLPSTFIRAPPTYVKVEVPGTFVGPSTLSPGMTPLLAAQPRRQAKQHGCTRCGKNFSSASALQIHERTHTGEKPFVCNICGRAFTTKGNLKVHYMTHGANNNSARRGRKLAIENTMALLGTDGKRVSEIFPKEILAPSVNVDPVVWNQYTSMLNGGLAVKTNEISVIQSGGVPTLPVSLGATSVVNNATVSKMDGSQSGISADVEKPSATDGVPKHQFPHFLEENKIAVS
Strand,E-score
GTCGGGAA,0.027
ATAAGATG,0.178
AGGACCTG,-0.237
GATTACCC,0.0388
ACGCGCAT,0.0669
AATAGGCA,0.269
CGATCAGA,-0.0241
CTGTGCTC,-0.0545
CGGTACCA,-0.157
CCTTTTCC,0.0337
TAATCGTA,0.249
ACTAGGCC,-0.234
CGCGCGCC,-0.169
AGTGAGAC,-0.104
TCCTCCAA,-0.0486
CCTAGACG,-0.211
AGTTGAAG,-0.00158
TACGTTAA,0.244
GCCTTGGA,-0.14
GGGAGGAC,-0.224
CTTGGGCA,-0.143
ATAGACGG,0.11
CAGTTCCG,-0.261
CCTTCCCC,-0.251
CCTGTAAG,-0.112

# Series 2
# Target: PABPC1L2, full length, GST fusion (mouse, UniProt A0ABA7IW68)
# Method: RNAcompete
# Form: RNA
# Matrix: in vitro
# Tested at: 20 nM
# Notes: 7-mer, probes averaged, single round
# Baseline: mean of 7-mers
# Direction: higher = stronger binding
# Target sequence (chain): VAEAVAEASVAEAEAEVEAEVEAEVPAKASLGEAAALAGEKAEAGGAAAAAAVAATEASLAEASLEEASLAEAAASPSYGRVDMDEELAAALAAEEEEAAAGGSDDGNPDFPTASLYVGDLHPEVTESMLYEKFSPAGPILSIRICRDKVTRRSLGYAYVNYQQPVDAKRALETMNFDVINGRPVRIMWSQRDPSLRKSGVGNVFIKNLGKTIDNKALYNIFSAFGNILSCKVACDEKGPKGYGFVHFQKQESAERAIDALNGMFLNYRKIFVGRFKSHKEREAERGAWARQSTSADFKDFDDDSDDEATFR
Strand,7-mer Z-score
CCCACCC,-0.411
GGGCAAA,1.58
GGACGGU,0.0877
AUUGAAC,-0.108
CCCAAAG,-0.0754
CUCGACU,-0.293
CGUGGAA,0.0823
UAUGCCG,-0.258
CUAAGAC,-0.0246
GGUACGU,-0.179
UUAAUGC,-0.0754
GCCCAGA,-0.0899
AGUGUAC,-0.0138
GGCACAG,0.256
GAUAAGC,-0.115
UCGACUU,-0.267
CGUAACA,-0.217
AGAGUAG,-0.15
GCGAUCC,-0.249
AUAGACG,-0.0989
ACGUGAA,-0.0101

# Series 3
# Target: Histone acetyltransferase KAT6A, winged helix 1, GST fusion (KAT6A, Homo sapiens, UniProt Q92794, residues 1-85)
# Method: protein binding microarray
# Form: double-stranded DNA, one strand shown
# Matrix: in vitro
# Tested at: not given
# Notes: 8-mer, flanks averaged, mean of 2 arrays, mostly near background
# Baseline: not given
# Direction: higher = stronger binding
# Residues (chain): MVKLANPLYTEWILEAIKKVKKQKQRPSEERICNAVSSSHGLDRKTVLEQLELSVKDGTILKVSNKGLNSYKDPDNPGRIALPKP
Strand,E-score
GCATCGTA,0.041
CCGCTTCC,0.24
CCGCGTCA,0.33
TCTCGCCA,-0.0216
ACCGCACG,0.321
CAGGTAGA,-0.0971
CCCCGTAC,0.368
TGATATCA,-0.255
ATTTTTTC,-0.0347
GCACGAGC,0.116
AGCGAAAT,-0.0672
GGCCTCAC,0.0394
GGCGGGCA,0.327
CGTTCTGA,-0.0692
ACCTTGTG,-0.102
AATATCAC,-0.0698
GCGTTGAC,0.0241
GGCAGACA,0.0208
CCGCGGCG,0.459
AAACGTCT,-0.146
ATTGGTCC,0.0422
ATAAAGCG,0.194
ACTCGCCC,0.155
AAACCGCA,0.0169

# Series 4
# Target: RNA binding protein fox-1 homolog 2, RRM domain, GST-SBP tag (RBFOX2, Homo sapiens, UniProt O43251-10, residues 100-194)
# Method: RNA Bind-n-Seq
# Form: RNA
# Matrix: in vitro
# Tested at: 365 nM
# Notes: natural RNA segment, single round, ends assumed
# Baseline: no-protein control
# Direction: higher = stronger binding
# Constant ends, left off below: GGGAGUUCUACAGUCCGACGAUC … UGGAAUUCUCGGGUGCCAA
# Construct (chain): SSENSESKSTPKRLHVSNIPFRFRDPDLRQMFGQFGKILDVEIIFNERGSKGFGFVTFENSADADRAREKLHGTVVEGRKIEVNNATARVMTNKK
Strand,RBNS enrichment (R)
UAAACCUGUGAUAAGAUGUCUGCAAUAGACUCAGCCUUCUGUGACUAACUCCUAACUAACCAGCUCGCAGUGCGCUGCAGCCUUCCUUUUACCUUCAGCUGUCUCAGGAA,0.63
CCAAGCAGAGGCUCCCCUCAUGAAGGAAGCCAUUGCACUGUGAACACUGUACCUGCCUGCUGAACAGCCUGCCCCCGUCCAUCCAUGAGCCAGCAUCCGUCCGUCCUCCA,6.91
UAUUAGAAUGUGUAAAUGAAGCUUGCUUGGAAGGGGAAAACUUUAAAUAAAAACUUUAUGUACUAAUCAACUGUCUCUCAUAUCCUACUUACAUAUGUAUAAAUCUCUAC,0.98
GUAAUCUGGUGUUGAACAACUAAGUCAGUAAUUGUCCUGUCUUUCAAACCAGUUAGCAACACAAUAUUUAUGUUUAAAUUUAUCAUUAAAGUACAACAGUCAUUUAACAC,0.496
AUGGAUGAAGUUGAAGAGAAAUCUAAAGAUGUUAUAAACUUUACUGCCGAGAAACUUUCAGUAGAUGAAGUCUCACAGUUGGUGAUUUCUCCGCUCUGUGGUGCAAUAUC,0.542
AUUGCAAAUGUAGUGUAUCACUGAGUCAUUUGCAGUGUUUUCUGCCACAGACCUUUGGGCUGCCUUAUAUUGUGUGUGUGUGUGGGUGUGUGUGUGUUUUGACACAAAAA,1.07
CAGUGAAAGUCGUCCUUGUCUCAGAAUGACCAGGGGCCAGCCAGUGUCUGACCAAGGUCAAGGGGCAGGUGCAGAGGUGGCAGGGAUGGCUCCGAAGCCAGAAAUGCCUU,0.282
CUAUUCUCAGAGGUUUGGACUUUCGUAUUGUAAUUAGCUCUGUUGGCAUGGUGACUUGUCACUCCUGCCAAAAAUAUUAAAAAUGCCUUUUUUGGAAGGACUACAGAAAG,0.457

# Excerpt of the above (series 4):
Strand,RBNS enrichment (R)
CUAUUCUCAGAGGUUUGGACUUUCGUAUUGUAAUUAGCUCUGUUGGCAUGGUGACUUGUCACUCCUGCCAAAAAUAUUAAAAAUGCCUUUUUUGGAAGGACUACAGAAAG,0.457
CAGUGAAAGUCGUCCUUGUCUCAGAAUGACCAGGGGCCAGCCAGUGUCUGACCAAGGUCAAGGGGCAGGUGCAGAGGUGGCAGGGAUGGCUCCGAAGCCAGAAAUGCCUU,0.282
GUAAUCUGGUGUUGAACAACUAAGUCAGUAAUUGUCCUGUCUUUCAAACCAGUUAGCAACACAAUAUUUAUGUUUAAAUUUAUCAUUAAAGUACAACAGUCAUUUAACAC,0.496
AUUGCAAAUGUAGUGUAUCACUGAGUCAUUUGCAGUGUUUUCUGCCACAGACCUUUGGGCUGCCUUAUAUUGUGUGUGUGUGUGGGUGUGUGUGUGUUUUGACACAAAAA,1.07
AUGGAUGAAGUUGAAGAGAAAUCUAAAGAUGUUAUAAACUUUACUGCCGAGAAACUUUCAGUAGAUGAAGUCUCACAGUUGGUGAUUUCUCCGCUCUGUGGUGCAAUAUC,0.542
UAAACCUGUGAUAAGAUGUCUGCAAUAGACUCAGCCUUCUGUGACUAACUCCUAACUAACCAGCUCGCAGUGCGCUGCAGCCUUCCUUUUACCUUCAGCUGUCUCAGGAA,0.63
